Measurements pooled from the literature.
Lines come from different studies, so protocols differ.

Structure (SMILES) | tested on | test | test system | setting | how to read | measurement | value
CCN(CC)CC(=O)Nc1cccc(-n2cc(-c3ccc4ccc(-c5cn(-c6cccc(NC(=O)CN(CC)CC)c6)nn5)cc4c3)nn2)c1 | RCC4 | PCR angiogenesis array, item: VEGFB | – | 5 x IC50, 2 h, normoxia | reference: untreated | fold regulation | 1.2 fold
COC1CN([C@H]2CC[C@H]([C@@]3(C)Oc4c(Cl)cc(C(=O)NCc5c(SC)cc(C)[nH]c5=O)c(C)c4O3)CC2)C1 | – | RNA-seq, item: PCP4L1 | human, whole blood | dose not given, 24 h | reference: pretreatment baseline | log2 fold change | 1.17
C=CC(=O)N1[C@H](c2ccc3c(c2)OCO3)c2[nH]c3ccccc3c2C[C@@H]1C(=O)N1CCN(C)CC1 | human cyclin E1 N112C-3xFLAG:CDK2 | co-IP with TMT proteomics, item: SDHB | – | concentration not given, P21912 | reference: wild type DMSO | relative co-enrichment | 124%
C=C(NC(=O)c1csc(-c2nc3c(cc2O)-c2nc(cs2)C(=O)NC(C(C)O)C(=O)NC(=C(C)OC)c2nc(cs2)C(=O)NC2c4nc(cs4)C(=O)NC(COC(=O)c4c5c6c(cccc6n4O)COC(=O)C(OC4CC(C)(O)C(N(C)C)C(C)O4)C2OC5)c2nc-3cs2)n1)C(N)=O (stereo not shown) | Streptococcus pneumoniae | – | -25, immunocompromised mice, lung | 16 mg/kg/day thrice daily, 24 h post-dose | – | lung bacterial load | 3.89 log10 CFU/lung
CNS(=O)(=O)Nc1nccc(Cc2c(C)c3ccc(Oc4ncccc4F)cc3oc2=O)c1F | MFE-296 | cell viability | – | 7 days | – | IC50 | > 1000 nM
Cn1ncc2cc(-c3cncc(Cl)c3N3CCC4(CCNC4=O)CC3)ccc21 | LS174T | gene expression, microarray, item: NDRG1 mRNA | – | concentration not given, 24 h | reference: untreated cells | log2 fold change | 2.54
C=CC(=O)Nc1cccc(Cn2ncc3cnc(Nc4cnn(CCOC)c4)nc32)c1 | PDGFRA human | binding, KINOMEscan | – | 100 nM | lower = stronger binding | percent of control | 69%
Cc1ncsc1-c1ccc(C(C)NC(=O)C2CC(O)CN2C(=O)C(NC(=O)CCCCCCCCCCN2CCCC(Nc3ncc(Cl)c(Nc4ccccc4S(=O)(=O)C(C)C)n3)C2)C(C)(C)C)cc1 (stereo not shown) | 22Rv1 | RNA-seq, item: ZNF609 mRNA | – | concentration not given | reference: DMSO | log2 fold change | -1.67
CN1CCCNC(=O)c2cccc(c2)C(=O)NCCCN(C)CCCNc2cccc3c2C(=O)c2cccc(c2C3=O)NCCC1 | SAS | RNA-Seq, item: SAFB mRNA | – | 1 µM, 6 h | reference: untreated cells | log2 fold change | 0.6
Nc1ncc(-c2cc(-c3cnn(CC(F)(F)F)c3)ncc2F)nc1C(=O)NC1CNCC(F)C1 (stereo not shown) | ITK | KINOMEscan | – | 1 µM | reference: DMSO control | remaining binding | 100%
